Experimental data pooled from the literature.
Lines come from different studies, so protocols differ. Values joined by “and” are separate records of one study, mostly repeats; a detail may differ. Numbers after ± are the reported error.
CHRM5: Muscarinic acetylcholine receptor M5 (CHRM5, Homo sapiens, UniProt P08912)
T1: DNA aptamer; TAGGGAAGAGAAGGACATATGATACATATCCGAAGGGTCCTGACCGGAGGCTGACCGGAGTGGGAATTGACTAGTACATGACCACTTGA

CCN(C(=O)C1CCN(S(=O)(=O)c2ccc3[nH]ncc3c2)CC1)[C@H]1CCc2ccccc21 — positive allosteric modulation (CHRM5; calcium mobilization; CHO cells expressing human M5; with: acetylcholine EC20): inactive
Nc1ncc(-c2nc(N3CCOCC3)nc(N3CCN(C(=O)CCC(=O)N4CCN(CCCCCCNc5cccc6c5C(=O)N(C5CCC(=O)NC5=O)C6=O)CC4)CC3)n2)c(C(F)F)n1 (stereo not shown) — protein level (Phosphatidylinositol 4,5-bisphosphate 3-kinase catalytic subunit alpha isoform (PIK3CA, Homo sapiens, UniProt P42336, E545K); degrader, Western blot; MCF7; concentration not given, 48 h after washout): not detected
COc1cncc(-c2cc(F)cc(CNC(=O)c3cc(N4CC[C@@](C#N)(C5CC5)C4=O)cc(C)n3)c2)c1 — melting temperature (Bifunctional glutamate/proline--tRNA ligase, prolyl-tRNA synthetase domain (EPRS1, Homo sapiens, UniProt P07814); thermal shift): 68.3 °C and 67.4 °C
O=Cc1c(O)ccc2ccccc12 — log2 fold change (HUVEC; RNA sequencing, measured: TM4SF18; 75 µM, 24 h; baseline: DMSO): -3.3
C[C@H](CCC(=O)N[C@@H](CCC(=O)Nc1cccc(O)c1)C(=O)O)[C@H]1CC[C@H]2[C@@H]3[C@H](O)C[C@@H]4C[C@H](O)CC[C@]4(C)[C@H]3CC[C@]12C — normalized Jmax/Kt (Ileal sodium/bile acid cotransporter (SLC10A2, Homo sapiens, UniProt Q12908); transport efficiency, substrate, LC-MS/MS; ASBT-MDCK): 0.141 µM⁻¹
CCC(=C(c1ccc(Cl)cc1)c1ccc(OCCCN(C)C)cc1)c1ccccc1 — β-galactosidase activity fold (Estrogen receptor (ESR1, Homo sapiens, UniProt P03372); reporter gene, agonist, yeast estrogen screen; 1 µM; baseline: DMSO): 2.2
CCCCCCOc1ccc(C(=O)OCC[N+]2(C)CC=CCC2)cc1 (stereo not shown) — Kb (CHRM5; inositol phosphate accumulation, antagonist, Schild analysis; CHO; with: carbachol): 49 nM
COC(=O)c1c(Oc2ccc(F)c(NC(=O)Cc3cccc(C(F)(F)F)c3)c2)ccc2nc(NC(=O)C3CC3)sc12 — selectivity ratio (Receptor-interacting serine/threonine-protein kinase 1 (RIPK1, Homo sapiens, UniProt Q13546); KINOMEscan binding Kd; baseline: RIPK1 over RIPK3, higher = more RIPK1-selective): 0.41
CNc1ccccc1C(=O)O[C@H]1C[C@H](n2cnc3c(N)ncnc32)O[C@@H]1COP(=O)(O)OP(=O)(O)O — donor-acceptor distance (Unconventional myosin-Va (Gallus gallus, UniProt Q02440, D297C/G292C/I296C/S293C/V295G); FRET; compound complex; 4 °C, with: 4 mM EDTA): 12.5 Å
CS(C)=O.CS(C)=O.[Cl][Cu][Cl].c1ccc(-c2nnc(-c3ccc4c(c3)OCO4)[nH]2)nc1 — activated caspase-3 cells (T24; FITC-DEVD-FMK flow cytometry; 5.3 µM, 24 h): 31.5%
CC(=O)N[C@@H](COP(=O)(O)O)C(=O)N1CCC[C@H]1C(=O)N[C@H](C(=O)N[C@@H](Cc1ccccc1)C(N)=O)[C@@H](C)O — heat capacity change (Breast cancer type 1 susceptibility protein, tandem BRCT domains (BRCA1, Homo sapiens, UniProt P38398); binding, isothermal titration calorimetry; concentration not given): -303 ± 27 cal/(mol·K)
CC(=O)OCOC(=O)CN(CC(=O)OCOC(C)=O)Cc1c(OC(C)=O)ccc2c1Oc1c(ccc(OC(C)=O)c1CN(CC(=O)OCOC(C)=O)CC(=O)OCOC(C)=O)C21OC(=O)c2ccccc21 — combination index (MDA-MB-468; with: rucaparib): < 1
N=C(N)NCCC[C@@H]1NC(=O)[C@H](CCCCNC(=O)CNC(=O)CNC(=O)CNC(=O)CC[C@H](NC(=O)CNC(=O)CNC(=O)CNC(=O)CC[C@H](NC(=O)CN2CCN(CC(=O)O)CCN(CC(=O)O)CCN(CC(=O)O)CC2)C(=O)NCC(=O)NCC(=O)NCC(=O)N[C@@H](CCC(=O)NCC(=O)NCC(=O)NCC(=O)NCCCC[C@@H]2NC(=O)[C@@H](Cc3ccccc3)NC(=O)[C@H](CC(=O)O)NC(=O)CNC(=O)[C@H](CCCNC(=N)N)NC2=O)C(=O)NCC(=O)NCC(=O)NCC(=O)NCCCC[C@@H]2NC(=O)[C@@H](Cc3ccccc3)NC(=O)[C@H](CC(=O)O)NC(=O)CNC(=O)[C@H](CCCNC(=N)N)NC2=O)C(=O)NCC(=O)NCC(=O)NCC(=O)NCCCC[C@@H]2NC(=O)[C@@H](Cc3ccccc3)NC(=O)[C@H](CC(=O)O)NC(=O)CNC(=O)[C@H](CCCNC(=N)N)NC2=O)NC(=O)[C@@H](Cc2ccccc2)NC(=O)[C@H](CC(=O)O)NC(=O)CNC1=O [indium-111 labelled] — tissue uptake (female athymic nu/nu mice, lungs; intravenous, 72 h): 0.91 ± 0.08 %ID/g
CC[C@H]1[C@@H](O)[C@@H]2[C@H](CC[C@]3(C)[C@@H]([C@H](C)CCOS(=O)(=O)[O-])CC[C@@H]23)[C@@]2(C)CC[C@@H](O)C[C@@H]12.[Na+] — plasma ALT (ob/ob NASH mice, plasma; oral, 3 mg/kg once daily, 8 wk): 478 ± 33.9 U/L
C=C1CN(S(=O)(=O)c2ccc(C)cc2)CCCN(Cc2ccccc2)CCCN(S(=O)(=O)c2ccc(C)cc2)C1 — translation and translocation (Prolactin (PRL, Bos taurus, UniProt P01239); cell-free translation; reticulocyte lysate, microsomes; concentration not given): no effect
C[C@@H](N)[C@H]1CC[C@H](C(=O)Nc2ccncc2)CC1 — activity vs control (Protein kinase C delta type (PRKCD, Homo sapiens, UniProt Q05655); enzyme activity, inhibitor, radiometric; 10 µM): < 10%
Cc1c(OCc2ccc(Cl)c(Cl)c2)ccc(C(=O)O)c1O — lowest effective concentration (Inducible T-cell costimulator, with ICOS ligand (Homo sapiens, UniProt Q9Y6W8); ICOS/ICOS-L binding, inhibitor, TR-FRET; 5% DMSO, with: 10 nM ICOS-L): ≥ 296 µM
C=CCC(=N)NCCC[C@H](N)C(=O)O — NMDA-evoked cGMP accumulation (Nitric oxide synthase 1 (Mus musculus, UniProt Q9Z0J4); adult mouse hippocampal slices; 0.1 µM, with: EHNA 300 µM): no effect
C[C@]12CC[C@@H]3c4ccc(O)cc4C(=NOCC(=O)O)C[C@H]3[C@@H]1CC[C@@H]2O — Kd (T1, DNA aptamer; APAA; NaCl 100 mM): 3.1 nM

A few entries again:
C=C1CN(S(=O)(=O)c2ccc(C)cc2)CCCN(Cc2ccccc2)CCCN(S(=O)(=O)c2ccc(C)cc2)C1 — translation and translocation (Prolactin (PRL, Bos taurus, UniProt P01239); cell-free translation; reticulocyte lysate, microsomes; concentration not given): no effect
